Experimental data from different studies.
Lines come from different studies, so protocols differ. ± gives the spread as reported.

Structure (SMILES) | assay | test system | conditions | how to read | Cmax
Cc1noc(C)c1-c1cc(C(O)(c2ccccn2)c2ccccn2)c2nc(C3CC3)[nH]c2c1 |  | human patients, fasted, plasma | oral, 3 mg once daily, cycle 1 day 15, together with: enzalutamide once daily |  | 84.4 ng/mL
CNC(=O)c1ccccc1Sc1ccc2c(/C=C/c3ccccn3)n[nH]c2c1 | measured: total drug | human, moderate hepatic impairment, plasma | single dose, NCI classification |  | 71.3 ng/mL
NS(=O)(=O)OC[C@@H]1C[C@@H](n2ccc3c(N[C@H]4CCc5ccccc54)ncnc32)C[C@@H]1O | LC-MS/MS, non-compartmental | human, plasma | intravenous, all dose levels, cycle 1 day 1, median |  | 273 ng/mL
CN(C)C(=O)c1cc2cnc(Nc3ccc(N4CCNCC4)cn3)nc2n1C1CCCC1 |  | human, moderate renal impairment, plasma | oral, 400 mg, geometric mean |  | 419 ng/mL
NC(=O)c1[nH]cnc1N |  | human patients, plasma | IV infusion over 1 h, 1000 mg/m^2 DTIC, cycle 2 day 1, staggered with co-drug |  | 6530 ng/mL
O=C(O)CCCCCCCCCCCCC(=O)O |  | human, plasma | concentration not given, endogenous control diurnal |  | 91.2 ± 10.3 nM
Cn1cc(-c2ccc(S(=O)(=O)[C@@H]3C[C@@H](C(=O)NC4(C#N)CC4)N(C(=O)C4(C(F)(F)F)CC4)C3)c(C(F)(F)F)c2)cn1 | noncompartmental analysis | human, plasma | oral, 100 mg, day 1, with food, geometric mean |  | 955 ng/mL
C#C[C@]1(O)CC[C@H]2[C@@H]3CCC4=CC(=O)CC[C@@H]4[C@H]3CC[C@@]21CC |  | human female, plasma | single dose oral contraceptive, cpd alone |  | 2.9 ng/mL
C=CC(=O)NC1CCN(c2ncc3ncnc(Nc4ccc(Oc5ccc6c(c5)ncn6C)c(C)c4)c3n2)CC1 |  | human, male, plasma | oral, 30 mg single dose, fed, geometric mean |  | 208 nM
Cn1ncnc1[C@H]1c2n[nH]c(=O)c3cc(F)cc(c23)N[C@@H]1c1ccc(F)cc1 |  | human patients, plasma | oral, 400 µg/m2 twice daily day 1, day 5, dose level DL2, median, together with: temozolomide 20 mg/m2 daily days 2-6 |  | 10.1 ng/mL
CNC(=O)c1c(C)oc2cc(Oc3ncnc4cc(OC)c(OC)cc34)ccc12 |  | human, normal hepatic function, plasma | oral, dose not given, single dose |  | 120 ng/mL
Cn1nc2c(=O)n(C3CC3)cnc2c1[C@](O)(c1cnc(C(F)(F)F)c(Cl)c1)C(F)(F)F |  | humanized SCID mice, blood | 3 mg/kg once daily, 6 days, infected |  | 1460 nM
COC(=O)N[C@@H](C)CNc1nccc(-c2cn(C(C)C)nc2-c2cc(Cl)cc(NS(C)(=O)=O)c2F)n1 |  | human, plasma | oral, 50 mg, together with: posaconazole 400 mg twice daily | geometric mean | 932 ng/mL
CCO |  | human, breath | 0.5 g/kg, together with: placebo |  | 66.5 ± 11.4 mg/100 mL
N#CCNC(=O)c1ccc(-c2ccnc(Nc3ccc(N4CCOCC4)cc3)n2)cc1 |  | healthy human volunteers, plasma | oral, dose not given, day 4, without rifampin |  | 777 ng/mL
C=CC(=O)N1CCC[C@@H](n2c(=O)n(-c3ccc(Oc4ccccc4)cc3)c3c(N)nccc32)C1 |  | human, fed, plasma | oral, 300 mg, geometric mean |  | 83.5 ng/mL
CCN1CCN(Cc2ccc(Nc3ncc(F)c(-c4cc(F)c5nc(C)n(C(C)C)c5c4)n3)nc2)CC1 |  | healthy human, fasted, plasma | oral, 200 mg, 2 x 100 mg capsules |  | 116 ng/mL
Cn1c(=O)oc2ccc(-c3ccc(C[C@@H](C#N)NC(=O)[C@@H]4CNCCCO4)cc3)cc21 |  | human, severe renal impairment, plasma | oral, 25 mg single dose, mean |  | 141 ng/mL
O=C(O)CCCCCCCCCCCCCCCCC(=O)O |  | human, plasma | concentration not given, endogenous baseline diurnal |  | 110 ± 9 nM
C[C@@H](N)c1cc(Cl)ccc1Cn1c(=S)[nH]c(=O)c2[nH]ccc21 |  | human, both sexes, severe renal impairment, plasma | oral, 2.5 mg single dose, geometric mean |  | 7.77 nM

Repeated from above:
Structure (SMILES) | assay | test system | conditions | how to read | Cmax
Cn1cc(-c2ccc(S(=O)(=O)[C@@H]3C[C@@H](C(=O)NC4(C#N)CC4)N(C(=O)C4(C(F)(F)F)CC4)C3)c(C(F)(F)F)c2)cn1 | noncompartmental analysis | human, plasma | oral, 100 mg, day 1, with food, geometric mean |  | 955 ng/mL
C#C[C@]1(O)CC[C@H]2[C@@H]3CCC4=CC(=O)CC[C@@H]4[C@H]3CC[C@@]21CC |  | human female, plasma | single dose oral contraceptive, cpd alone |  | 2.9 ng/mL
